Published values pooled from the literature.
Compare with care: the assays were run in different laboratories. ± gives the spread as reported. Converted amounts (≈) assume the structure as drawn.

N[C@]1(c2ccccc2Cl)CCC[C@H](O)C1=O
plasma concentration (Wistar rat, plasma; 20 mg/kg, 72 h): not detected

CC[C@H](C)[C@H](NC(=O)[C@H](CCCCN)NC(=O)[C@@H](NC(=O)[C@H](CS)NC(=O)[C@H](CCCNC(=N)N)NC(=O)[C@H](CCCNC(=N)N)NC(=O)[C@H](CC(N)=O)NC(=O)[C@H](CCCNC(=N)N)NC(=O)[C@H](CS)NC(=O)[C@@H](NC(=O)[C@H](CO)NC(=O)[C@@H](NC(=O)[C@H](CS)NC(=O)[C@H](CCCCN)NC(=O)[C@@H](N)CCCNC(=N)N)[C@@H](C)CC)C(C)C)[C@@H](C)CC)C(=O)N[C@@H](CS)C(=O)N[C@@H](CCCNC(=N)N)C(=O)O
single disulfide form (LC-MS; PBS; 0.1 mg/mL): 24%

CN[C@@H]1[C@H](O)[C@H](NC)[C@H]2O[C@]3(O)[C@H](O[C@@H]2[C@H]1O)O[C@H](C)C[C@H]3NC(=O)Cc1cc(Cl)ccn1
fraction unbound (rat plasma): 0.85

O=C(NC12CC3CC(CC(C3)C1)C2)c1cc2cc(Cl)ccc2[nH]1
kinetic solubility (CLND; phosphate-buffered saline; 1 (unit not given), pH 7.4): < 1 µM

CC1=C[C@H]2c3c(O)cc(CCc4ccccc4)cc3OC(C)(C)[C@H]2CC1
plasma concentration (LC-MS/MS; male BALB/c mouse, plasma; intraperitoneal, 50 mg/kg, 1 h, added: Δ9-trans-THC 10 mg/kg and trans-PET 40 mg/kg): 1790 nM

Cc1cccc(-c2nc(Nc3ccncn3)c3sccc3n2)n1
kinetic solubility (CLND; phosphate-buffered saline; 1 (unit not given), pH 7.4): 277 µM (≈ 88.7 µg/mL)

CN[C@@H]1[C@H](O)[C@H](NC)[C@H]2O[C@]3(O)[C@H](O[C@@H]2[C@H]1O)O[C@H](C)C[C@H]3NC(=O)Cc1cscn1
fraction unbound (rat plasma): 0.869

COc1ccc2nc(C)cc(OCC(=O)Nc3ccccc3OC)c2c1
kinetic solubility (CLND; phosphate-buffered saline; 1 (unit not given), pH 7.4): 38 µM (≈ 13.4 µg/mL)

COc1ccc(-n2cc(C(=O)N3C[C@]4(OC(=O)c5ccccc5NC(C)=O)CC[C@H](OC)[C@@]56[C@@H]4C[C@@H]([C@@H]35)[C@@]3(O)C[C@H](OC)[C@H]4C[C@@H]6[C@]3(O)[C@H]4OC)nn2)cc1
elimination rate constant (Sprague-Dawley rat, plasma; intravenous, 2 mg/kg): 0.000639 ± 0.000378 s⁻¹

Cc1cccc(-c2nc(Nc3ccncn3)c3c(C)csc3n2)n1
intrinsic clearance (mouse liver microsomes): 20.8 mL/min/g

NCc1ccc2[nH]c3c(c2c1)CC1(O)C2Cc4ccc(O)c5c4C1(CCN2CC1CC1)C3O5 (stereo not shown)
recovery time (Irwin observation; naive mice; intraperitoneal, 10 mg/kg): 1 h

CN[C@@H]1[C@H](O)[C@H](NC)[C@H]2O[C@]3(O)[C@H](O[C@@H]2[C@H]1O)O[C@H](C)C[C@H]3NC(=O)Cc1ccc(F)cn1
fraction unbound (rat plasma): 0.723

Cc1ccc2nc(C)c(C(=O)NCc3ccc(C(F)(F)F)cc3)n2c1
intrinsic clearance (mouse liver microsomes): 92 ml/min/g protein
